Experimental data collected from several papers.
Lines come from different studies, so protocols differ. Several values in a cell are separate wells, animals, samples, runs or records. ± gives the spread as reported.

SMILES | tested on | test | test system | setting | how to read | endpoint | result
O=C(C[Se]C(=O)c1ccccc1Nc1cccc(C(F)(F)F)c1)Nc1cccc(C(F)(F)F)c1 | NCI60 NSCLC subpanel mean | cell growth |  |  |  | TGI | 3400 nM
CCC(=CCc1c(O)cc2c(c1O)C(=O)CC(c1cccc(O)c1)O2)CC (centres unmarked) | HeLa | cell growth or viability, MTT |  | 25 µM, 48 h |  | inhibition | 45.3%
CCN(CC)CC(=O)Nc1cccc(-n2cc(-c3ccc4ccc(-c5cn(-c6cccc(NC(=O)CN(CC)CC)c6)nn5)cc4c3)nn2)c1 | RCC4 | PCR angiogenesis array, measured: CXCL1 |  | 5 x IC50, 6 h, normoxia | baseline: untreated | fold regulation | -2.18
C[n+]1cccc2cc(/C=N/NC(=O)c3cncc(C(=O)N/N=C/c4ccc5c(ccc[n+]5C)c4)n3)ccc21 | 22CTA telomeric G4-DNA antiparallel | FRET melting |  | 1 µM, K10 buffer, DNA 0.2 µM |  | ΔTm | 13.8 ± 0.3 °C
O=CCNCCOn1c(=O)n(OCCNCCO)c(=O)n(OCCNCCOn2c(=O)n(OCCNCCO)c(=O)n(OCCNCCO)c2=O)c1=O | A549 | cell growth or viability, MTT |  | 200 µg/mL, 48 h |  | viability | 13%
CCc1c(-c2ccc3[nH]ncc3c2)cnc(N)c1-c1ccc(O)cc1 | CHP-212 resistant sublines, USP7 V517F heterozygous |  |  | 0.1953 µM |  | viability | 108%
Cn1ncc2cc(-c3cncc(Cl)c3N3CCC4(CCNC4=O)CC3)ccc21 | LS174T | gene expression, microarray, measured: MT1E mRNA |  | concentration not given, 4 h | baseline: untreated cells | log2 fold change | -2.15
CC(=O)N[C@@H](Cc1ccc(I)cc1)C(=O)N[C@@H](CCC(=O)O)C(=O)N[C@H](C(=O)N[C@@H](CC(=O)O)C(=O)COC(=O)c1c(C)cccc1C)[C@@H](C)O | THP-1 cells expressing FKBP-caspase-4 | pyroptosis, inhibitor |  | concentration not given, with: B/B dimerizer |  | LDH release | 35.5% and 30.3% and 32.7%
Cc1ncsc1-c1ccc(C(C)NC(=O)C2CC(O)CN2C(=O)C(NC(=O)CCCCCCCCCCN2CCCC(Nc3ncc(Cl)c(Nc4ccccc4S(=O)(=O)C(C)C)n3)C2)C(C)(C)C)cc1 (centres unmarked) | 22Rv1 | RNA-seq, measured: ST20-AS1 |  | concentration not given | baseline: DMSO | log2 fold change | -1.15
COc1cc(N2CCN(C(=O)C3CCCN3)CC2)ccc1Nc1ncc(Cl)c(Nc2ccccc2P(C)(C)=O)n1 (centres unmarked) | NCI-H3122 | CCK-8 |  | 25 nM, 48 h |  | viability | 60%
COc1ccccc1-c1ccncc1C(=O)Nc1nnc(OCc2ccc(Cl)cc2)s1 | DLD-1 parental |  |  | 0.06 µM, single replicate |  | colony count | 80 and 79 and 60 and 73 and 83
CC12CCCC(n3cc(C(=O)N4CC(N)C4)nn3)(C1)C1CC(C)(C)C1CC2 (centres unmarked) | HT-29 | cell growth or viability, CCK-8 |  | 50 µM |  | inhibition | 84.1%
O=C(N/N=C/c1cc[n+](CC2CC2)c2ccccc12)C(=O)N/N=C/c1cc[n+](CC2CC2)c2ccccc12 | 22CTA telomeric G4-DNA antiparallel | FRET melting |  | 1 µM, K10 buffer, DNA 0.2 µM |  | ΔTm | 6.3 ± 2 °C
Nc1ncc(-c2cc(-c3cnn(CC(F)(F)F)c3)ncc2F)nc1C(=O)NC1CNCC(F)C1 (centres unmarked) | DRAK2 | KINOMEscan |  | 1 µM | baseline: DMSO control | remaining binding | 34%
CN1CCCNC(=O)c2cccc(c2)C(=O)NCCCN(C)CCCNc2cccc3c2C(=O)c2cccc(c2C3=O)NCCC1 | SAS | RNA-Seq, measured: LTN1 mRNA |  | 1 µM, 6 h | baseline: untreated cells | log2 fold change | 1.06
C=CCc1c(O)cc2c(c1O)C(=O)CC(c1ccc(O)cc1)O2 (centres unmarked) | HeLa | cell growth or viability, MTT |  | 50 µM, 48 h |  | inhibition | 15.1%
C1=[N+]2CCCC[N+]3=Cc4ccc5[n]4[Au-]23[n]2c1ccc2-c1nc2ccccc2nc1-5.F[P-](F)(F)(F)(F)F | OVCAR-8 | NCI60 five-dose screen |  |  |  | TGI | 4 -log M
CC12CCCC(n3cc(C(=O)N4CCC(O)CC4)nn3)(C1)C1CC(C)(C)C1CC2 (centres unmarked) | HT-29 | cell growth or viability, CCK-8 |  | 50 µM |  | inhibition | 72.9%
COC1CN([C@H]2CC[C@H]([C@@]3(C)Oc4c(Cl)cc(C(=O)NCc5c(SC)cc(C)[nH]c5=O)c(C)c4O3)CC2)C1 |  | RNA-seq, measured: HOMER1 | human, whole blood | dose not given, 24 h | baseline: pretreatment baseline | log2 fold change | 1.37
COc1ccc(CNC[C@](O)(COCc2ccccc2)[C@@H]2CC[C@@H](C)C[C@H]2OCc2ccccc2)cc1 | A2780 | cell growth or viability, MTT |  | 30 µM, 72 h |  | inhibition | 93.4%
O=S(=O)(N[C@H]1CCO[C@@H](C2c3ccc(F)cc3CCc3cc(F)ccc32)C1)c1ccc(OC(F)(F)F)cc1 | D425 | immunoblot |  | concentration not given |  | I2PP2A protein level | increased
CC(C)c1ccc(N(C)c2ccc3c(c2)OCC[C@H]3CNc2cnccc2C(=O)O)cc1 | LoVo | cell growth or viability, ATP luminescence |  | 7 days |  | IC50 | 57.8 nM
CNS(=O)(=O)Nc1nccc(Cc2c(C)c3ccc(Oc4ncccc4F)cc3oc2=O)c1F | LoVo | cell viability |  | 7 days |  | IC50 | 83.6 nM

Excerpt of the above:
SMILES | tested on | test | test system | setting | how to read | endpoint | result
COc1ccccc1-c1ccncc1C(=O)Nc1nnc(OCc2ccc(Cl)cc2)s1 | DLD-1 parental |  |  | 0.06 µM, single replicate |  | colony count | 80 and 79 and 60 and 73 and 83
CC12CCCC(n3cc(C(=O)N4CCC(O)CC4)nn3)(C1)C1CC(C)(C)C1CC2 (centres unmarked) | HT-29 | cell growth or viability, CCK-8 |  | 50 µM |  | inhibition | 72.9%
